Measurements pooled from the literature.
DRD4: D(4) dopamine receptor (DRD4, Homo sapiens, UniProt P21917)
Chain of UniProt P21917 (whole entry, unmodified, looked up): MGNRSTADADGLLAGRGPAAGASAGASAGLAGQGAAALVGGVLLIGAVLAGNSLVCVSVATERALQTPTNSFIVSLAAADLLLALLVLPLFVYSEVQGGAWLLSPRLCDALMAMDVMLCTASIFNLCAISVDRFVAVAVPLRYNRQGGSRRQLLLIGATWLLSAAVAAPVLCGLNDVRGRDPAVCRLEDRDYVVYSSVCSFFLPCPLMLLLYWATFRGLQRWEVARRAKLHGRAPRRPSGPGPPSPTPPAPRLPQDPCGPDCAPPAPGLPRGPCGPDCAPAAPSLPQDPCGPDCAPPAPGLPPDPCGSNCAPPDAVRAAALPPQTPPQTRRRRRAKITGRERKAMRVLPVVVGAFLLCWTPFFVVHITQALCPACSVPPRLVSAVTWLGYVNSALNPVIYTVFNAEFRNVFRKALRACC
DRD4 del265-296: D(4) dopamine receptor (DRD4, Homo sapiens, UniProt P21917, del265-296)

Structure (SMILES) | target | observed | method | tested at | with | inhibition
Cc1ccnc(OC[C@H]2CN(CCN3CCc4ccccc43)CCO2)c1 | DRD4 | radioligand binding | – | concentration not given | [3H]N-methylspiperone | 81.1%
Cn1ccc2cc(-n3c(=O)[nH]c4sc5c(c4c3=O)CCCC5)ccc21 | DRD4 | cell-free assay | radioligand | 10 µM | – | 2%
FC1(F)CCN(Cc2ncc3ccccn23)CC1COc1cccc(Cl)n1 (centres unmarked) | DRD4 | ligand displacement | radioligand | 10 µM | – | 11%
CC(C)Cn1c(SCC(=O)N2CCc3ccccc3C2)nc2cc(Cl)ccc2c1=O | DRD4 | ligand displacement | radioligand | 10 µM | – | -60%
CC1Cc2ccccc2N1C(=O)CN1CCN(c2ccccc2)CC1 (centres unmarked) | DRD4 | radioligand binding | – | concentration not given | [3H]N-methylspiperone | 6.9%
Fc1cccc(OCC2CN(Cc3cn4ccccc4n3)CCC2(F)F)n1 (centres unmarked) | DRD4 | ligand displacement | radioligand | 10 µM | – | 41%
O=C(CN1CCO[C@@H](COc2cccc(Cl)c2)C1)N1CCc2ccccc21 | DRD4 | radioligand binding | – | concentration not given | [3H]N-methylspiperone | 96.6%
COCC(=O)N1CCc2cc(-c3csc(NC(=O)c4cc(OC)cc(OC)c4)n3)ccc21 | DRD4 del265-296 | cell-free assay | – | 10 µM | – | -6%
COc1ccc(CN2CC(COc3cccc(F)n3)CC(F)(F)C2)cc1F (centres unmarked) | DRD4 | ligand displacement | radioligand | 10 µM | – | 13%
COc1ccc(C(=O)Nc2c(-c3cccs3)nc3ccccn23)cc1 | DRD4 | ligand displacement | radioligand | 10 µM | – | < 50%
Cc1[nH]nc2c1N=C(c1ccccc1Cl)c1cnc(N3CCOCC3)cc1N2 | DRD4 del265-296 | cell-free assay | – | 10 µM | – | -6%

Excerpt of the above:
Structure (SMILES) | target | observed | method | tested at | with | inhibition
FC1(F)CCN(Cc2ncc3ccccn23)CC1COc1cccc(Cl)n1 (centres unmarked) | DRD4 | ligand displacement | radioligand | 10 µM | – | 11%
CC(C)Cn1c(SCC(=O)N2CCc3ccccc3C2)nc2cc(Cl)ccc2c1=O | DRD4 | ligand displacement | radioligand | 10 µM | – | -60%
